Assay results of several laboratories.
Numbered parts are unrelated; each lists some results of a single study. Changes are numbered by the printed parent chain.
Chain of UniProt Q01959 (whole entry, looked up): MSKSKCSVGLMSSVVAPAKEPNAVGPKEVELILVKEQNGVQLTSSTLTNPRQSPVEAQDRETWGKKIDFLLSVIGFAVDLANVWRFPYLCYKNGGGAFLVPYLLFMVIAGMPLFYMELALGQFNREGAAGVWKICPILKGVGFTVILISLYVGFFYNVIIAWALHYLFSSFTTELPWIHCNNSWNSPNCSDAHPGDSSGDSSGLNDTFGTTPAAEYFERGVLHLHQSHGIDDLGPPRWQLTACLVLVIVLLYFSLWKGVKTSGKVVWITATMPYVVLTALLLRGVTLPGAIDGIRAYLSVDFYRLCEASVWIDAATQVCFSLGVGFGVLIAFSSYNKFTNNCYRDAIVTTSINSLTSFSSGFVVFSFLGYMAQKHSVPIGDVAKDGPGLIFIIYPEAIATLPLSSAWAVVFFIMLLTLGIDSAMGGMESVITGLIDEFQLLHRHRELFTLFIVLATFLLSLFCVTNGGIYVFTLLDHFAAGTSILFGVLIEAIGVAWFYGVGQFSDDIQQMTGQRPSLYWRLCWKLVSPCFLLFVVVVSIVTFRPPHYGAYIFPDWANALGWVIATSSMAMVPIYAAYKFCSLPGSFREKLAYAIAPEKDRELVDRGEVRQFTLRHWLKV
Chain of UniProt P41145 (whole entry, looked up): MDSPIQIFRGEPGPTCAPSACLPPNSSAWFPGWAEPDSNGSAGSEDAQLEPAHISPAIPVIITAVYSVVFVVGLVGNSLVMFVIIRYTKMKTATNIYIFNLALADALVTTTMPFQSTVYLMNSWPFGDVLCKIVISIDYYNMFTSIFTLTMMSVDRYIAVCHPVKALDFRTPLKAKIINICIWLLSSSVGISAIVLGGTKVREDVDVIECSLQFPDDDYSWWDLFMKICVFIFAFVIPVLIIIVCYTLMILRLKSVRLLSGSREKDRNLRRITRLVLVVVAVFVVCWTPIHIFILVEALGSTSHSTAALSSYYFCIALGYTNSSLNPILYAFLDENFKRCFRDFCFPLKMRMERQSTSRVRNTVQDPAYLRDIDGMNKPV
Chain of UniProt P20309 (whole entry, looked up): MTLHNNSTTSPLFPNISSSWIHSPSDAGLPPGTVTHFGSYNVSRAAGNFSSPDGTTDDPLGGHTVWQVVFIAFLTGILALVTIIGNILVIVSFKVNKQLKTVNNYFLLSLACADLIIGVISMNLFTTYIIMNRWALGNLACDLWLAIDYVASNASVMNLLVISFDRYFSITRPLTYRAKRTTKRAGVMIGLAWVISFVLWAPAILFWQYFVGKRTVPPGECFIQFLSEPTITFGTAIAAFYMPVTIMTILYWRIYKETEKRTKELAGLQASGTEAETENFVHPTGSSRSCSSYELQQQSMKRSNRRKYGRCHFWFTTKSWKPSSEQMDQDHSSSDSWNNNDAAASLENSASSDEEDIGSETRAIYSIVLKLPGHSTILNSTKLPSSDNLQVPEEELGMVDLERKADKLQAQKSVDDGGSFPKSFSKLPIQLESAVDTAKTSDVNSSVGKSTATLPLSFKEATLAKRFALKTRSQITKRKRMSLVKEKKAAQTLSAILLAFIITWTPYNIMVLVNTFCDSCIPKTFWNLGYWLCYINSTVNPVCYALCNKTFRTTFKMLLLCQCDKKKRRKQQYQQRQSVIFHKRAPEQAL
Chain of UniProt P23975 (whole entry, looked up): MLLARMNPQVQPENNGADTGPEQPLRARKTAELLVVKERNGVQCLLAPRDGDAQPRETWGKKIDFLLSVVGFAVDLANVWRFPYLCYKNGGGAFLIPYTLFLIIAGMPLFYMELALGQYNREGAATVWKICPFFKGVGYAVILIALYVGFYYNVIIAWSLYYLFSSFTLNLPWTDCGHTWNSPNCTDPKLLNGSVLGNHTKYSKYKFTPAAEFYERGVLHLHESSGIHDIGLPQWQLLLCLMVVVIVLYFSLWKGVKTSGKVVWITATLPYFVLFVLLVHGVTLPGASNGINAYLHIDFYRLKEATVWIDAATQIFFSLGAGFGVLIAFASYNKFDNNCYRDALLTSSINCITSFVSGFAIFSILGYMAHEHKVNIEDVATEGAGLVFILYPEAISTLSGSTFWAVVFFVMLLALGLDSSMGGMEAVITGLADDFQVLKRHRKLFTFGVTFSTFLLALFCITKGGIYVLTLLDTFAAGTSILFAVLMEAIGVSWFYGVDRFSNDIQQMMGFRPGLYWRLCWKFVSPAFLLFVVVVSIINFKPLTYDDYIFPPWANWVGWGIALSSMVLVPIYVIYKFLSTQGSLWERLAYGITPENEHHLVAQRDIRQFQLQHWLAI

Block 1
Target: CCNF, cyclin fold, Cln2 fusion (human)
Method: yeast growth competition, sequencing
Sample: yeast
Setting: strong parent motif
Relative to: not given
Direction: higher = stronger binding
Measurement: normalised enrichment score
Starting sequence: viral docking peptide; YKVKRRLVFGADD
V8E: 8.54
K2M: 8.91
K2A: 8.71

Block 2
Target: HLA class I histocompatibility antigen, A alpha chain, allele A*80:01 (Homo sapiens, UniProt P04439)
Observed: peptide-MHC binding
Molecule type: peptide
Direction: direction not given
Measurement: z-score of log IC50
DLEKYNLAF: 0.38
FLILPQAKK: 0.38
APDGFYPFK: 0.38

Block 3
Target: Ephrin type-A receptor 6 (EPHA6, Homo sapiens, UniProt Q9UF33)
Chain of UniProt Q9UF33 (whole entry, looked up): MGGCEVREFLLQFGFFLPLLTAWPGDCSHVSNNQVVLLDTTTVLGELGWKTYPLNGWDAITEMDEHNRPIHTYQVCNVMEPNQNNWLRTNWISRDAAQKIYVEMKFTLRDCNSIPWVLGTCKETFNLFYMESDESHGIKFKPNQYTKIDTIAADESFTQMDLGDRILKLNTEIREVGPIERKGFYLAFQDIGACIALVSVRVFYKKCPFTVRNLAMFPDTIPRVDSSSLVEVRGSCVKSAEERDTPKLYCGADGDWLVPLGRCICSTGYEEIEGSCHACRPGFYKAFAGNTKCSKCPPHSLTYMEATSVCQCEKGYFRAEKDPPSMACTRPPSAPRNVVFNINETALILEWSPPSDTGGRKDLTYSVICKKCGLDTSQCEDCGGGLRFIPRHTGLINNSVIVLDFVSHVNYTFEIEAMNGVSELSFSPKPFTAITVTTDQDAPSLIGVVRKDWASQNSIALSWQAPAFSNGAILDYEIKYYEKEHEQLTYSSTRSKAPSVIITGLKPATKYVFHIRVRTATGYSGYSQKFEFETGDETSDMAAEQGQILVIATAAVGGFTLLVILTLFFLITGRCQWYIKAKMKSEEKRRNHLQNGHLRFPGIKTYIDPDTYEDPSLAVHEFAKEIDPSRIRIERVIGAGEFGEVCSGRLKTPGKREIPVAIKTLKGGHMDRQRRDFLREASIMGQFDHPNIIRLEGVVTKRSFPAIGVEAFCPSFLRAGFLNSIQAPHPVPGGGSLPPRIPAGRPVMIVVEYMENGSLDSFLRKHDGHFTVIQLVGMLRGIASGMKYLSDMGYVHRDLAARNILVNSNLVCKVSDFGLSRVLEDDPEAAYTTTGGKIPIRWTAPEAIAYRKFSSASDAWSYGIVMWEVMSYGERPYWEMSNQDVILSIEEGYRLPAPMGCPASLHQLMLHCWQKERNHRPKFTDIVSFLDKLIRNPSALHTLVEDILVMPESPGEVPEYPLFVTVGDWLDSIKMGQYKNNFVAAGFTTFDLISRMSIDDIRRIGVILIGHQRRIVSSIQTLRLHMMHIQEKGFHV
Observed: cell-free assay
Tested at: 0.5 µM
Measurement: remaining signal
Cc1ccc(Nc2nccc(N(C)c3ccc4c(C)n(C)nc4c3)n2)cc1S(N)(=O)=O: 80%
COc1cc2c(Nc3ccc(Br)cc3F)ncnc2cc1OCC1CCN(C)CC1: 3.27%
C[C@@H]1CCN(C(=O)CC#N)C[C@@H]1N(C)c1ncnc2[nH]ccc12: 99%

Block 4
SMILES: CCS(=O)(=O)c1cc2cc(C[C@](O)(CC(C)(C)c3ccc(F)cc3C(N)=O)C(F)(F)F)[nH]c2cn1
Tested at: 10 µM
Measurement: inhibition
Sodium-dependent dopamine transporter (SLC6A3, Homo sapiens, UniProt Q01959); cell-free assay: -8.67%
Kappa-type opioid receptor (OPRK1, Homo sapiens, UniProt P41145); ligand displacement: 23.4%
Sodium-dependent noradrenaline transporter (SLC6A2, Homo sapiens, UniProt P23975); cell-free assay: -20.6%
Muscarinic acetylcholine receptor M3 (CHRM3, Homo sapiens, UniProt P20309); ligand displacement: -21.7%

A few entries again (block 4):
Kappa-type opioid receptor (OPRK1, Homo sapiens, UniProt P41145); ligand displacement: 23.4%
